Experimental data of several laboratories.
Parts stem from different laboratories: compare values within a part only. Positions count from the first letter of the parent shown.

Sample 1
Target: Histone acetyltransferase KAT6A, both winged helices, GST fusion (KAT6A, Homo sapiens, UniProt Q92794, residues 1-181)
Method: protein binding microarray
Molecule type: double-stranded DNA, one strand shown
Sample: in vitro
Concentration: not given
Notes: 8-mer, flanks averaged, mean of 2 arrays, mostly near background
Reference: not given
Reading: higher = stronger binding
Construct (chain): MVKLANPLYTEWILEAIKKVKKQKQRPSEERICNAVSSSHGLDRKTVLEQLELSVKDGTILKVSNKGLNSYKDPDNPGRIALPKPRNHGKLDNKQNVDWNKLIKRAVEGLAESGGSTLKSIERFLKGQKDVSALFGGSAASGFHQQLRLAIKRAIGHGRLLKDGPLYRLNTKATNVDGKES
The E-score of `CCCGGCTC` is reported as 0.178.
`ACAGCGGA` gave an E-score of 0.0528.
`AGAAAGGG` has an E-score of -0.202.
The E-score of `CCGCCCTA` is reported as 0.0733.
The E-score of `GAATTCTA` is reported as -0.0611.
With `GGCAGAAA` the E-score was 0.0588.
The E-score of `TCTTAAAA` is reported as -0.187.
`CCAGTTGA` gave an E-score of -0.0422.

Sample 2
Target: ABI1, truncated, D143A, DHFR fusion (Arabidopsis thaliana)
Method: DHFR PCA, deep sequencing
Sample: yeast
Notes: methotrexate growth selection, single substitutions
With: (+)-ABA 1.4 µM
Reference: wild-type fitted maximum
Reading: higher = stronger binding
Starting sequence: PYL1, truncated, DHFR fusion (Arabidopsis thaliana); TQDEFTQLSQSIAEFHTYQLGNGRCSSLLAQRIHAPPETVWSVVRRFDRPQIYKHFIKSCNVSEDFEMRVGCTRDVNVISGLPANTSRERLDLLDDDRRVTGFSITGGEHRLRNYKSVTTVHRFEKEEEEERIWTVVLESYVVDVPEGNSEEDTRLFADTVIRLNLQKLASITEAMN; partner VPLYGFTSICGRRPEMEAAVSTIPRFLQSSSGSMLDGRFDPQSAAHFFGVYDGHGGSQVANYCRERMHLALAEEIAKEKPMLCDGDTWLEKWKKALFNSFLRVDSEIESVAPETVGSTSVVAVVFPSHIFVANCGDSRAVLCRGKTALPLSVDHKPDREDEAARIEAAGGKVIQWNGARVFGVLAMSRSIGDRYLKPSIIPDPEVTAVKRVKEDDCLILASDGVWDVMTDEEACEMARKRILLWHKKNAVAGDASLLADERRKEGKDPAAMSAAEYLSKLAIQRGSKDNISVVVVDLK
`P146D`: “relative binding score” -7.49%.
For `Q31Y`, “relative binding score” read -0.905%.
Under “relative binding score”, `A13D` is recorded as 40.4%.
Under “relative binding score”, `Y115D` is recorded as 0.637%.
`E139D`: “relative binding score” -6.45%.
`G81T`: “relative binding score” 16.5%.
`L82G` — result for “relative binding score”: 21.9%.
`F56A`: “relative binding score” -0.0205%.

Other studies, line by line
HCM1 DNA-binding domain: Forkhead transcription factor HCM1, DNA-binding domain (HCM1, Saccharomyces cerevisiae, UniProt P25364, residues 41-213)
UniProt P25364, sequence (41-213, looked up): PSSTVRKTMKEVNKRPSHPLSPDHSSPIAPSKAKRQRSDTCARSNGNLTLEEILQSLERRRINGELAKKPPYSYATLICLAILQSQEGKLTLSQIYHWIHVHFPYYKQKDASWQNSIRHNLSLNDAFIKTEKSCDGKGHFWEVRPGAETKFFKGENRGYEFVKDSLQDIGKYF
P1: viral docking peptide; KGVKRKLFAEDSS; partner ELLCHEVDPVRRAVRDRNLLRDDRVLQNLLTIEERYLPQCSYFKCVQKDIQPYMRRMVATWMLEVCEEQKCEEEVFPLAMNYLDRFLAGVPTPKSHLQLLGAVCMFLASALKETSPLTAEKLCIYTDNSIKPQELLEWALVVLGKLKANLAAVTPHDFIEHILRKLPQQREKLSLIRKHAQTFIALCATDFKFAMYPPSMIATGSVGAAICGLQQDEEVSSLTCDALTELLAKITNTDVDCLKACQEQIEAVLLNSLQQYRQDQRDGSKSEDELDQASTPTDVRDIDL
For `KHDRBS3 (Homo sapiens, UniProt O75525)`, cross-linked residues read “K33 to K131” (KHDRBS1 (Homo sapiens, UniProt Q07666); cross-linking MS; cell fractions; with: DSSO).
For `GATAACA`, “relative binding free energy” read 1.45 ddG/RT (HCM1 DNA-binding domain; SELEX-seq; double-stranded DNA, one strand shown, in vitro; not given, 7-bp core, flanks averaged; reference: best-binding core, lower = stronger binding).
`HADHB (Homo sapiens, UniProt P55084)`: cross-linked residues “K253 to K25” (CYGB (Homo sapiens, UniProt Q8WWM9); cross-linking MS; cell fractions; with: DSSO).
For `ATCAACA`, “relative binding free energy” read 0.09 ddG/RT (HCM1 DNA-binding domain; SELEX-seq; double-stranded DNA, one strand shown, in vitro; not given, 7-bp core, flanks averaged; reference: best-binding core, lower = stronger binding).
`SEC16A (Homo sapiens, UniProt O15027)`: cross-linked residues “E2098 to K1412” (PRRC2C (Homo sapiens, UniProt Q9Y520); cross-linking MS; cell fractions; with: DMTMM).
Under “normalised enrichment score”, `P1 R5M` is recorded as 0.00648 (CCND2, cyclin fold, Cln2 fusion (human); yeast growth competition, sequencing; yeast; weak parent motif; reference: not given, higher = stronger binding).
Under cross-linked residues, `ADAR (Homo sapiens, UniProt P55265)` is recorded as “K798 to K540” (SESTD1 (Homo sapiens, UniProt Q86VW0); cross-linking MS; cell fractions; with: DSSO).
